Assay results from different studies.
Protocols differ between the studies behind these lines. Several values in a cell are separate wells, animals, samples, runs or records. ± gives the spread as reported.

With `C=Cc1c(C)c2cc3nc(c(CC(=O)[O-])c4[n-]c(cc5nc(cc1[n-]2)C(C)=C5CC)c(C)c4C(=O)[O-])C(CCC(=O)[O-])C3C.[Cu+2].[Na+].[Na+].[Na+]` (centres unmarked) the serum cholesterol was 48.3 ± 9.97 mg/dL (Wistar rat, female; oral, 500 mg/kg daily, 28 days).
`CCCCC/C=C\CCCO[Si](CCCCN(C)C)(OCCC/C=C\CCCCC)OCCC/C=C\CCCCC` has a half-life of about 30 min (cynomolgus monkey (Mauritius origin), male, plasma; intravenous infusion, 1 mg/kg, single dose).
For `O=C1NC2(CC2)COc2ncc(F)cc2[C@H]2COCCN2c2ccn3ncc1c3n2`, “organ-to-body weight ratio” read 0.015 ± 0.001% (Sprague-Dawley rat, male, adrenals; oral, 20 mg/kg/day, 4 weeks, end of treatment).
`CSCC[C@H](NC(=O)CNC(=O)[C@H](CCCCN)NC(=O)[C@H](CC(C)C)NC(=O)[C@@H]1CCCN1C(=O)[C@H](CO)NC(=O)[C@H](Cc1c[nH]cn1)NC(=O)[C@H](Cc1c[nH]c2ccccc12)NC(=O)[C@H](CCCNC(=N)N)NC(=O)[C@H](CC(C)C)NC(=O)[C@H](CCCNC(=N)N)NC(=O)[C@H](Cc1c[nH]c2ccccc12)NC(=O)[C@H](CS)NC(=O)CCCCCNC(=O)CN1CCN(CC(=O)O)CCN(CC(=O)O)CCN(CC(=O)O)CC1)C(=O)O` [copper-64 labelled] has a tissue uptake of 2.09 %ID/g (ex vivo biodistribution; C57BL/6J mice bearing B16-F10 tumours, heart; intravenous, 1.85 MBq, 2 h).
`CC(C)[C@@H]1NC(=O)CNC(=O)[C@H](CC(N)=O)NC(=O)[C@H](CCCNC(=N)N)NC(=O)[C@H](Cc2ccc(O)cc2)NC(=O)[C@H](C(C)C)NC(=O)[C@@H](NC(=O)[C@@H](NC(=O)[C@H](CC(N)=O)NC(=O)[C@H](Cc2c[nH]c3ccccc23)NC(=O)[C@H](C)NC(=O)[C@H](Cc2ccccc2)NC(=O)CNC(=O)[C@H](CCCCN)NC(=O)[C@H](Cc2ccccc2)NC(=O)[C@H](Cc2ccccc2)NC(=O)[C@H](CCCCN)NC(=O)OCC2c3ccccc3-c3ccccc32)C(C)C)CSSC[C@@H](C(=O)N[C@@H](Cc2c[nH]cn2)C(=O)N[C@@H](CCCNC(=N)N)C(=O)N[C@@H](CCCNC(=N)N)C(=O)N[C@@H](C)C(=O)N[C@@H](CC(N)=O)C(N)=O)NC(=O)[C@H](C(C)C)NC(=O)[C@H](CCCNC(=N)N)NC1=O` gave a plateletcrit of 0.03% (ICR mice, blood; intraperitoneal, 5 mg/kg, day 5).
For `O=C(CN1CCN(CC(=O)NCP(=O)([O-])[O-])CCN(CC(=O)NCP(=O)([O-])[O-])CCN(CC(=O)NCP(=O)([O-])[O-])CC1)NCP(=O)([O-])[O-].[Gd+3]`, “volume of distribution” read 0.248 L/kg (Sprague-Dawley rats, blood; intravenous, 35 µmol/kg, two-compartment model, with: GdDTPA 68 µmol/kg co-injected).
For `C[C@@H]1COCCN1c1nc(NCc2cccnc2C(F)(F)F)c2cccnc2n1`, the hepatocyte CLint was 16 µL/min/10⁶ cells (metabolic stability; rat, hepatocytes).
`CN1Cc2cc(Cl)ccc2-n2c(nnc2C2CCN(c3cccc([18F])n3)CC2)C1`: “total volume of distribution” 0.97 ± 0.39 mL/cm3 (PET two-tissue compartment model; rhesus monkey, cerebellum; intravenous, dose not given, 100 min scan, baseline scan).
For `O=C(CN1CN(c2ccccc2)C2(CCN(C(=O)c3cnc4[nH]ncc4c3)CC2)C1=O)NCC(F)(F)F`, the Papp was 1.73 ×10⁻⁶ cm/s (PAMPA).
`CC(C)(CCCC/C=C/CCCCCC(C)(C)C(=O)O)C(=O)O` has a plasma concentration of 37000 ng/mL (beagle dog, both sexes; oral, dose not given, 0.25 h).
`CC[C@H](C)[C@H](NC(=O)[C@H](CCCCN)NC(=O)CNC(=O)[C@H](CC(C)C)NC(=O)[C@H](Cc1ccccc1)NC(=O)[C@H](CCCCN)NC(=O)[C@H](CO)NC(=O)[C@H](Cc1ccccc1)NC(=O)[C@H](Cc1c[nH]c2ccccc12)NC(=O)[C@H](CCC(N)=O)NC(=O)[C@@H](NC(=O)[C@H](Cc1ccccc1)NC(=O)CCCCCNC(=O)CN1CCN(CC(=O)O)CCN(CC(=O)O)CCN(CC(=O)O)CC1)C(C)C)C(=O)N[C@@H](CCC(=O)O)C(=O)N1CCC[C@H]1C(=O)N[C@H](CC(=O)O)C(=O)N[C@H](C(=O)N[C@@H](CO)C(=O)N[C@@H](CCC(N)=O)C(=O)N[C@H](C(=O)N[C@@H](CCC(N)=O)C(=O)N[C@@H](CC(=O)O)C(=O)N1CCC[C@H]1C(=O)N[C@@H](CC(N)=O)C(=O)N[C@@H](CC(=O)O)C(=O)N[C@@H](CCC(N)=O)C(=O)N[C@@H](Cc1ccc(O)cc1)C(=O)N[C@@H](CCC(=O)O)C(=O)N1CCC[C@H]1C(=O)N[C@@H](Cc1ccccc1)C(=O)O)C(C)C)C(C)C` [copper-64 labelled] gave a tissue uptake of 0.31 ± 0.06 %ID/g (C57BL/6 mice, male, MC-38 tumour-bearing, muscle; 2 h, vehicle-treated).
`CSCC[C@H](N)C(=O)N[C@@H](C)C(=O)N[C@@H](Cc1c[nH]c2ccccc12)C(=O)N[C@@H](Cc1c[nH]cn1)C(=O)N[C@@H](CC(=O)O)C(=O)N[C@@H](CC(=O)O)C(=O)N[C@@H](CCC(=O)O)C(=O)N[C@@H](CCC(=O)O)C(=O)N[C@@H](Cc1ccccc1)C(=O)N[C@@H](C)C(=O)N[C@@H](CCCNC(=N)N)C(=O)N[C@@H](CCCNC(=N)N)C(=O)N[C@@H](CCCNC(=N)N)C(=O)N[C@@H](CCCNC(=N)N)C(=O)NCCCCCC(=O)NCCCCC(NC(=O)CCCCCNC(=O)[C@H](CCCNC(=N)N)NC(=O)[C@H](CCCNC(=N)N)NC(=O)[C@H](CCCNC(=N)N)NC(=O)[C@H](CCCNC(=N)N)NC(=O)[C@H](C)NC(=O)[C@H](Cc1ccccc1)NC(=O)[C@H](CCC(=O)O)NC(=O)[C@H](CCC(=O)O)NC(=O)[C@H](CC(=O)O)NC(=O)[C@H](CC(=O)O)NC(=O)[C@H](Cc1c[nH]cn1)NC(=O)[C@H](Cc1c[nH]c2ccccc12)NC(=O)[C@H](C)NC(=O)[C@@H](N)CCSC)C(=O)NCCCCC(NC(=O)C(CCCCNC(=O)CCCCCNC(=O)[C@H](CCCNC(=N)N)NC(=O)[C@H](CCCNC(=N)N)NC(=O)[C@H](CCCNC(=N)N)NC(=O)[C@H](CCCNC(=N)N)NC(=O)[C@H](C)NC(=O)[C@H](Cc1ccccc1)NC(=O)[C@H](CCC(=O)O)NC(=O)[C@H](CCC(=O)O)NC(=O)[C@H](CC(=O)O)NC(=O)[C@H](CC(=O)O)NC(=O)[C@H](Cc1c[nH]cn1)NC(=O)[C@H](Cc1c[nH]c2ccccc12)NC(=O)[C@H](C)NC(=O)[C@@H](N)CCSC)NC(=O)CCCCCNC(=O)[C@H](CCCNC(=N)N)NC(=O)[C@H](CCCNC(=N)N)NC(=O)[C@H](CCCNC(=N)N)NC(=O)[C@H](CCCNC(=N)N)NC(=O)[C@H](C)NC(=O)[C@H](Cc1ccccc1)NC(=O)[C@H](CCC(=O)O)NC(=O)[C@H](CCC(=O)O)NC(=O)[C@H](CC(=O)O)NC(=O)[C@H](CC(=O)O)NC(=O)[C@H](Cc1c[nH]cn1)NC(=O)[C@H](Cc1c[nH]c2ccccc12)NC(=O)[C@H](C)NC(=O)[C@@H](N)CCSC)C(N)=O` (some centres unmarked) has a tissue distribution of 0.29% and 0.36% and 0.28% (C57BL/6 mouse female, ovary; dose not given, 6 h; reference: total).
`CCc1nn(C)c2nc(-c3ccc(C(=O)O)cc3)nc(NCc3ccccc3)c12` gave a concentration of 4.17 ng/mL (male CD-1 mouse, plasma; intravenous, 1 mg/kg, 6 h).
`CC(C)C[C@@H](NC(=O)[C@@H](CCCNC(=N)N)NC(=O)[C@@H](Cc1c[nH]cn1)NC(=O)[C@@H](Cc1c[nH]c2ccccc12)NC(=O)[C@@H](Cc1c[nH]cn1)NC(=O)[C@@H](Cc1ccccc1)NC(=O)[C@H](NC(=O)[C@@H](Cc1ccc(O)cc1)NC(=O)CNC(=O)CNC(=O)CCOCCOCCOCCNC(=O)CN1CCN(CC(=O)O)CCN(CC(=O)O)CC1)[C@H](C)O)C(=O)N[C@H](CC(N)=O)C(=O)N1CCC[C@@H]1C(=O)O` [gallium-68 labelled]: “organ absorbed dose” 0.0136 ± 0.0001 mSv/MBq (OLINDA/EXM; adult female human, LLI wall; extrapolated from C57BL/6 mice).
